Measured values from different studies.
Every numbered part comes from another study and shows a few of its results, in no order. “And” joins repeats or separate records; there may be more than shown.
UniProt P00519, sequence (whole entry, unmodified, looked up): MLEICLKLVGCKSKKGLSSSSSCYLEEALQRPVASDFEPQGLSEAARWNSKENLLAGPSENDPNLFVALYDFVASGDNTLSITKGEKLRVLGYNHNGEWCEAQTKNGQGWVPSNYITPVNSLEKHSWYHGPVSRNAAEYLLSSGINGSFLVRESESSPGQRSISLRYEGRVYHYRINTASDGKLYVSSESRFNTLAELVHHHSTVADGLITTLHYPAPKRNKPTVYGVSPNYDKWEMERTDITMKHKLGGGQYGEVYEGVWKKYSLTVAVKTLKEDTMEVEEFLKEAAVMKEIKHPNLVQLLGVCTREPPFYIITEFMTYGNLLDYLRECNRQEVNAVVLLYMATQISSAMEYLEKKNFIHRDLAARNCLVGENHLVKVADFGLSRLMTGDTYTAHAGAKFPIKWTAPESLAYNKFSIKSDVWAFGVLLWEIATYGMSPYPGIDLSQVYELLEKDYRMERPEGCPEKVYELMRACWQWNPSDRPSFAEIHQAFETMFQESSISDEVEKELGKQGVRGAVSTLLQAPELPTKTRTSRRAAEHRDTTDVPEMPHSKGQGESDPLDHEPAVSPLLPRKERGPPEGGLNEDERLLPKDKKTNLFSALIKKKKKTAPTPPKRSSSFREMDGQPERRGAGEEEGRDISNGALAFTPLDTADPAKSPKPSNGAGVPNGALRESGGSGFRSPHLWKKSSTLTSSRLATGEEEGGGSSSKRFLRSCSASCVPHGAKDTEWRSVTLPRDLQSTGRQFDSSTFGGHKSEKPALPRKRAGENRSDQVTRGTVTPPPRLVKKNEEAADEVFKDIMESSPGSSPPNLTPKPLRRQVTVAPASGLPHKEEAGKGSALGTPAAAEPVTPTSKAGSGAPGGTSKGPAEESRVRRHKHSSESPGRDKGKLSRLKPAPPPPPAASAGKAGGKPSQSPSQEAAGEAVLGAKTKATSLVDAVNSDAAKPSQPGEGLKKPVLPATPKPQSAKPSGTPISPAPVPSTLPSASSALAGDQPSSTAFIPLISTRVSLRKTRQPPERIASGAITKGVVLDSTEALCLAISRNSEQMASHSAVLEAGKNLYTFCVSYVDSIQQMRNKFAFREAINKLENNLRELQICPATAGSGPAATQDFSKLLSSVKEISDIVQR

Study 1 — host: human; medium: microsomes or S9; tested at: 2 µM; time: 0.5 h
| SMILES | remaining compound [%] |
| --- | --- |
| COc1ccc(C)cc1C1=CC(C)(c2cc(C)ccc2OC)Nc2nnnn21 (stereo not shown) | 14.9 |
| Cc1cc(=O)n(C2CCNCC2)nc1-c1ccccc1 | 70.8 |
| COc1cc(O)ccc1-c1nnc(C)n1-c1ccc(O)cc1 | 63.1 |
| CCS(=O)(=O)c1nc(S(=O)(=O)c2ccc(Cl)cc2)c(NC2CCCC2)s1 | 21.6 |
| CC(/C=C1\S/C(=N/c2ccc(O)cc2)N=C1O)=C\c1ccccc1 | 80.8 |
| CCOc1cc(CNC(C)(C)C)c(Cl)cc1OC(C)C | > 99 |
| CC(C)c1nc(C#N)c(NNC(=O)CC2CCCCC2)o1 | 0 |
| CN(C)C[C@H]1CC[C@H](Nc2ncc3ccc(=O)n(C4CCCCCC4)c3n2)CC1 | 18.7 |
| CC(C)(C)OC(=O)NC(CC(=O)N1CCCCN1)Cc1ccccc1F (stereo not shown) | 3.34 |
| COc1ccc(Br)c2[nH]c(=O)cc(CCO)c12 | 74.1 |
| Clc1ccc(Nc2ccc(-n3ccnc3)nn2)cc1 | 67.5 |
| COCCOc1cc(=O)n2c(c1C(=O)NC1CCCCCC1)CCOCC2 | 62.1 |
| O=C1NCCNC1Cc1ccc(-c2cccc(F)c2F)cc1 (stereo not shown) | 79.4 |
| Cn1c(=O)n(-c2ccccn2)c(=O)c2c3c(sc21)COC(C)(C)C3 | 92.4 |

Study 2 — cell line: mouse MPNST tumor cells; method: high-content nuclear imaging; refers to: cell number; tested at: 10 µM; time: 12 h; setting: mean of 2 replicates; relative to: plate mean; reading: higher = more cells
| SMILES | nuclei count |
| --- | --- |
| COc1cc(Oc2ccnc3cc(OC)c(OC)cc23)ccc1NC(=O)NC(C)c1nccs1 (stereo not shown) | 1.27 z-score |
| COc1cc(Br)c(S(=O)(=O)Nc2ccc(C(F)(F)F)c(OC3CCN(C)C3)c2)cc1OC (stereo not shown) | 2.96 z-score |
| CCOC(=O)CSc1nc2c(sc3ccccc32)c(=O)n1CCCN1CCCC1 | -0.152 z-score |
| Cc1cc(C)nc(SCC(=O)Nc2ncc(Cc3cccc4ccccc34)s2)n1 | 1.27 z-score |
| O=c1c(-c2ccc(O)cc2)coc2cc(O)cc(O)c12 | -0.344 z-score |
| CC1COc2c(N3CCN(C)CC3)c(F)cc3c(=O)c(C(=O)O)cn1c23 (stereo not shown) | -0.0154 z-score |
| CNCCc1ccccn1 | 1.62 z-score |
| Cc1ccc(S(=O)(=O)NC2c3ccccc3Oc3ccccc32)cc1 | 0.0552 z-score |
| CCCc1ncc(C[n+]2ccccc2C)c(N)n1 | 1.23 z-score |
| CC(C)C[C@H](NC(=O)[C@@H](O)[C@H](N)Cc1ccccc1)C(=O)O | 0.499 z-score |
| C[C@H]1O[C@@H](O[C@H]2[C@@H](O)C[C@H](O[C@H]3[C@@H](O)C[C@H](O[C@H]4CC[C@@]5(C)[C@H](CC[C@@H]6[C@@H]5C[C@@H](O)[C@]5(C)[C@@H](C7=CC(=O)OC7)CC[C@]65O)C4)O[C@@H]3C)O[C@@H]2C)C[C@H](O)[C@@H]1O | 1.28 z-score |
| COc1cc2nc(N3CCC(N4CCCCC4)CC3)nc(NC3CCCCCC3)c2cc1OC | -6.58 z-score |
| Cc1nnc2c3ccccc3c(N[C@@H](C)[C@H](c3ccccc3)N(C)C)nn12 | 2.28 z-score and 0.0583 z-score |
| N#C[C@H](Cc1ccc(O)cc1)c1ccc(O)cc1 | 1.17 z-score |

Study 3 — read-out: enzyme activity; action: inhibitor; tested at: 0.5 µM; relative to: control
Target: Tyrosine-protein kinase HCK (HCK, Homo sapiens, UniProt P08631)
UniProt P08631, sequence (whole entry, looked up): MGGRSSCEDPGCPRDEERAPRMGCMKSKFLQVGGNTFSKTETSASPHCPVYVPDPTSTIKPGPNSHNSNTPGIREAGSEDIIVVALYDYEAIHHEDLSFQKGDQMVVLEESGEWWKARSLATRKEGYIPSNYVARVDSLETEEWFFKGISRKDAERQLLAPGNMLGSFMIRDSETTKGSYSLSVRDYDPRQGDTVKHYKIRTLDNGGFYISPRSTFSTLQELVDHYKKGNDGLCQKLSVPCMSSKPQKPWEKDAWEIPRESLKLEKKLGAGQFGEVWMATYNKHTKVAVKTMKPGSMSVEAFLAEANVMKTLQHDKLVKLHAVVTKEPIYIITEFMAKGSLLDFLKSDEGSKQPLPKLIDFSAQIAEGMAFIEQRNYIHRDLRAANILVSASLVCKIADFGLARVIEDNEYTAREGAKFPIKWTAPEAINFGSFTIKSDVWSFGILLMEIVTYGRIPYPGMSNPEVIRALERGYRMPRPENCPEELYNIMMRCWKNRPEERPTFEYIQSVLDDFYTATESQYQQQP
| SMILES | remaining activity [%] |
| --- | --- |
| Cc1cc(Nc2nc(-c3ccccc3)nc3ccccc23)n[nH]1 | 77.3 |
| COc1ccc(S(=O)(=O)N(CCO)c2ccccc2CN(C)CC=Cc2ccc(Cl)cc2)cc1 | 97.8 |
| N#CC(=C(N)Sc1ccc(N)cc1)c1ccccc1C(F)(F)F | 93.9 |
| Oc1ccc(Nc2nc(-c3ccc(Cl)cc3)cs2)cc1 | 96.1 |
| CC[n+]1c(/C=C/N(C)c2ccccc2)n(-c2ccccc2)c2ccc(-c3nc4ccccc4s3)cc21 | 104 |
| CC(=O)c1ccc(N2CCOCC2)cc1O | 116 |
| Nc1ncnc2c1cnn2-c1ccccc1 | 92.4 |
| CCCC(=O)Oc1ccc2[nH]c(C(=O)c3cc4ccccc4[nH]3)cc2c1 | 95.1 |
| Fc1ccc(-c2nc3n(c2-c2ccncc2)CCS3)cc1 | 101 |
| O=S(=O)(NCCNC/C=C/c1ccc(Br)cc1)c1cccc2cnccc12 | 99.4 |
| Cc1ccc(NC2=CC(=O)c3sc(C)nc3C2=O)cc1 | 94.4 |

Further values, each from its own experiment
| Structure (SMILES) | target | test | conditions | how to read | measurement | result |
| --- | --- | --- | --- | --- | --- | --- |
| CCC(=NO)C(C)=Cc1ccc(F)c(C)c1 | Tyrosine-protein kinase ABL1 (ABL1, Homo sapiens, UniProt P00519, E255K) | KINOMEscan | 1 µM, E255K mutant, phosphorylated | relative to: control | remaining binding | 100% |

Repeated from above (study 2):
| SMILES | nuclei count |
| --- | --- |
| CC(C)C[C@H](NC(=O)[C@@H](O)[C@H](N)Cc1ccccc1)C(=O)O | 0.499 z-score |
| C[C@H]1O[C@@H](O[C@H]2[C@@H](O)C[C@H](O[C@H]3[C@@H](O)C[C@H](O[C@H]4CC[C@@]5(C)[C@H](CC[C@@H]6[C@@H]5C[C@@H](O)[C@]5(C)[C@@H](C7=CC(=O)OC7)CC[C@]65O)C4)O[C@@H]3C)O[C@@H]2C)C[C@H](O)[C@@H]1O | 1.28 z-score |
| COc1cc2nc(N3CCC(N4CCCCC4)CC3)nc(NC3CCCCCC3)c2cc1OC | -6.58 z-score |
| Cc1nnc2c3ccccc3c(N[C@@H](C)[C@H](c3ccccc3)N(C)C)nn12 | 2.28 z-score and 0.0583 z-score |
